Measurements pooled from the literature.
Each numbered part is a random draw from the data of one study; scales do not carry over between parts. Positions count from the first letter of the parent shown.

Sample 1
Target: Sal-like protein 4, full length isoform A (SALL4, Homo sapiens, UniProt Q9UJQ4, residues 1-1053)
Sequence of UniProt Q9UJQ4 (whole entry, looked up): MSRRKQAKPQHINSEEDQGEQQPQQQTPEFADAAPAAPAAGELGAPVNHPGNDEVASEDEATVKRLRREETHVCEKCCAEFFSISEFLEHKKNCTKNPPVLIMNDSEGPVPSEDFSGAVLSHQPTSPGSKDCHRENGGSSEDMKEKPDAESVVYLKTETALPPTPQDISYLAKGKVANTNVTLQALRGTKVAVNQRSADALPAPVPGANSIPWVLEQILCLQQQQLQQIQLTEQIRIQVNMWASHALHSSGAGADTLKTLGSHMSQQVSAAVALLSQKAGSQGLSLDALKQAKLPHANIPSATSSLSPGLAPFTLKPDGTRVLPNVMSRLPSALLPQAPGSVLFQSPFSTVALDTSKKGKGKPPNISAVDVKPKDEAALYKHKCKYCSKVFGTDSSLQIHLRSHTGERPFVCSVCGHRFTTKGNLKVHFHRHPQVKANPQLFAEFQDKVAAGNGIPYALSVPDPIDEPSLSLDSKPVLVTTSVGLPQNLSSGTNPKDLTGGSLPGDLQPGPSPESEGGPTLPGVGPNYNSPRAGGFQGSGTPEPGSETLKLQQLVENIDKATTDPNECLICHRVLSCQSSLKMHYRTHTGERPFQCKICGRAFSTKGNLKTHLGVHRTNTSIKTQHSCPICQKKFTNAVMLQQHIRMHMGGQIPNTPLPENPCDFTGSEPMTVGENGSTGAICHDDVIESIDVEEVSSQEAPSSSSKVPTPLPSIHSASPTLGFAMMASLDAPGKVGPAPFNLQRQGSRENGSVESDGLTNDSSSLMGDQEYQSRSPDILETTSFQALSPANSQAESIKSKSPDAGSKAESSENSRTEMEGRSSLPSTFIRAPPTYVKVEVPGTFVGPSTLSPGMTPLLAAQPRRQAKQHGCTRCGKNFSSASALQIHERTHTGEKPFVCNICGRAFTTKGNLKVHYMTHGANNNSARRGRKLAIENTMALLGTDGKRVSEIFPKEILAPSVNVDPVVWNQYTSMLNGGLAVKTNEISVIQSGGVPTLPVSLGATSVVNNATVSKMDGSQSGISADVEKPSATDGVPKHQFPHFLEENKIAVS
Method: universal PBM
Form: double-stranded DNA, one strand shown
Medium: in vitro
Concentration: 600 nM
Notes: 8-mer, flanks averaged, mean of replicates
Reading: higher = stronger binding
`ACTTCTTG` has an E-score of -0.0562.
The E-score of `ATCATGGG` is reported as -0.13.
`AACGACAA` has an E-score of 0.0862.
For `CGAAGTAG`, the E-score was 0.00958.
`CGCACATC` has an E-score of -0.156.
`ACCTTATA` has an E-score of 0.235.
The E-score of `GCACCTAC` is reported as -0.253.
`CCGCTTCC` gave an E-score of -0.264.
`AGAACTCG` gave an E-score of 0.00388.
For `CGTGGATA`, the E-score was 0.0237.
`AGCCCGGA` has an E-score of -0.365.
The E-score of `CCATAAAC` is reported as 0.0965.
`GCGGATGA` gave an E-score of -0.0917.

Sample 2
Target: CCNE2, cyclin fold, Cln2 fusion (human)
Method: yeast growth competition, sequencing
Medium: yeast
Notes: weak parent motif
Reference: not given
Reading: higher = stronger binding
Parent: CENPC docking peptide (human); VKTKKRLNFDDKV
`V13A` — result for “normalised enrichment score”: -0.505.
`T3A` — result for “normalised enrichment score”: 2.14.
Under “normalised enrichment score”, `V1A` is recorded as 0.717.
`K5A` — result for “normalised enrichment score”: 0.759.
Under “normalised enrichment score”, `F9L` is recorded as 0.753.
Under “normalised enrichment score”, `K12A` is recorded as 0.96.
`D11A`: “normalised enrichment score” 0.277.

Sample 3
Target: RING finger protein unkempt homolog, zinc fingers 1-6, GST-SBP tag (UNK, Homo sapiens, UniProt Q9C0B0, residues 30-357)
Method: RNA Bind-n-Seq
Form: RNA
Medium: in vitro
Concentration: not given
Notes: RNA with constant flanks, human and mouse sites, ends assumed
Reference: input RNA pool
Reading: higher = stronger binding
Target sequence (chain): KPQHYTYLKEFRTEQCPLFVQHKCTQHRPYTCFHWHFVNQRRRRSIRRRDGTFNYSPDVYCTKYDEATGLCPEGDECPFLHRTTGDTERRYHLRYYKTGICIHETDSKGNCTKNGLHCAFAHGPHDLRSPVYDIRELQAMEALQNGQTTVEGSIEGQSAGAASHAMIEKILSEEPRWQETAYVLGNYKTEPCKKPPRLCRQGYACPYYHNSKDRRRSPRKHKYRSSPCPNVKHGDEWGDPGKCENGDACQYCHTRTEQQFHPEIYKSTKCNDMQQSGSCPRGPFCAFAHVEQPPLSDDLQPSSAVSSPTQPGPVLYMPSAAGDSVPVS
The bound/input enrichment of `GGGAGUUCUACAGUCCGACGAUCGCUCACAGUAUUAUGGGAAACCCAGGAAGCAAAAAUUUUCCUCGAAGAUAUUUGCCUCCAAAUUUGAAGACAUGGCCACAGAGAGGCAGAUCUUUGAGAGGCAGCCAGCAUUCCUCUCAACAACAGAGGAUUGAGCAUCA` is reported as 0.162 ratio.
With `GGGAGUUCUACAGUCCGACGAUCCCAACAAGAGAGUCGGAAUAUCACUCUUCAGAUCUCAGAAUGUUGAGGAUGUCUCCUGACACUGUGCCAAAGGCUCCUAAACAUUUAAAAGCAGGAGACACUUCUAAAGGAGGCAUAGCUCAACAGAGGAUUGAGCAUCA` the bound/input enrichment was 0.0467 ratio.
For `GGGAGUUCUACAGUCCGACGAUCACAGAGCCCCCCUACACAGCAUACGUAGGAAAUCUACCUUUCAAUACGGUUCAGGGCGACAUAGAUGCUAUCUUUAAGGAUCUCAGCAUAAGGAGUGUACGGCUAGUCAGAGACAAAGACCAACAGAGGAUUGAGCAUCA`, the bound/input enrichment was 0.237 ratio.
For `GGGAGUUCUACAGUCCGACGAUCUCAACUCUAGCCAAGGAGGCAGAAAGGAAUUCUUAUCGCCUAAGCUGGGGCACUGAGAACUUAGACAACGUGGCUCUUUCUUCUAGUCCUAUUCAUUCAGGUUUCCUGGUUAGUUUUAUGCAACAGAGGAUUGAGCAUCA`, the bound/input enrichment was 10.1 ratio.
`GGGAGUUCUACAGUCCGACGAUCUCUGGUAUUACCCUCACCUGCAUUGGUUUUGUUUUUUGGGGUUUUUGUUGUUUGUUUGUUUUUAGAUUCACAGAACAUGAGAAUCCUUUUUGACAAGCCUUGGAUAGCUGGCUCUCUUCUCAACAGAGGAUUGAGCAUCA` has a bound/input enrichment of 0.305 ratio.
`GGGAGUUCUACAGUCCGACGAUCAGCAAAGUAGAAAACUUCAUUCAAAAGCAAGAAAAACGGAUAUUUACAAACUUCCAUCGCCAGCUUUUUUGUUGGAUUGACAAGUGGAUCGAUCUCACGAUGGAAGACAUUAGGAGAAUGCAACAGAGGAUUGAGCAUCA` gave a bound/input enrichment of 2.04 ratio.
The bound/input enrichment of `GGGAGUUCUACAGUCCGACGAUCGGCAGUGUCCACCCCUCUGAUGUGUUGGAUAUGCCUGUGGAUCCCAACGAACCCACAUAUUGCCUUUGUCACCAGGUCUCCUAUGGAGAGAUGAUUGGCUGUGACAACCCGGAUUGUUCCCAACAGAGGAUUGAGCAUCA` is reported as 0.214 ratio.
With `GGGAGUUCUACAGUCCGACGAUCAGCCAAACUGGGGUCCUGGUAGGCCUUUCAACUCAGCGCACUGAUUUUCUUAUUUUCGUUGUUUUAAAAAGCAGCGACAUUUCUGGGUCUGGUGCUAAUACCCCCUUCCCACCUUCUGGGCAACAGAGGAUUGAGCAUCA` the bound/input enrichment was 0.112 ratio.
The bound/input enrichment of `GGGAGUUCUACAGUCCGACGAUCAGGACCUAUUCCAAUAGGCUCUUGGUGUUUCCCAUAUCAAGAUUUCUGCUAGCUAAUGCAUAGAGGGAAUACUGUCUAAAAAUAGACCCUUUCUUCCCAAAGGUUGGGAGGUGGGACCUGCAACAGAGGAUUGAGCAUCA` is reported as 0.222 ratio.
`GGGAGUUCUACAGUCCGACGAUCGAUGGACGUGGAGAAAGGCAAGAUUGAAGACACUGGAGGCAGUGGCGGCUCCUAUUCCAUCAAAACCCAGUUUAACUCGGAGGAGCAGUGGACAAAAGCGCUCAAGUUCAUGCUGACCAACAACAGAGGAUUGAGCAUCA` has a bound/input enrichment of 0.139 ratio.
`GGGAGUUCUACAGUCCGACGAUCUUCAACUCUGUAAACAAAGCAAAAAAUUAAAUUUUUAAAUUAAAUCAUUUGAGAUUUUUUUUUUCAAUUGGUGCUUUUAUAUUUUGUUCUCACUCGGACAGAGAAAAAGCUGCAAUUUCACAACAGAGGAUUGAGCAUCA` has a bound/input enrichment of 0.186 ratio.

Further values, each from its own experiment
For `PhoQ, residues 284 288 289 292 302 303 ASTSDA`, the fold induction was 10.7 (PhoP, residues 12 14 15 18 19 STWGI (Escherichia coli, UniProt P23836); Sort-seq, item: YFP reporter; E. coli; PhoQ-PhoP variant library, with: 10 µM Mg2+; reference: high Mg2+ state, higher = stronger signaling).

For quick reference, copied from above (sample 1):
`AGCCCGGA` has an E-score of -0.365.
`ACTTCTTG` has an E-score of -0.0562.
